{"data": "Experimental data collected from several papers", "note": "Numbered parts are unrelated; each lists some results of a single study."}
{"data": "Block 1", "target": "Centromere-binding protein 1, full length, His-tagged (CBF1, Saccharomyces cerevisiae, UniProt P17106, residues 1-351)", "technique": "competition protein-binding microarray", "molecule type": "double-stranded DNA, one strand shown", "medium": "in vitro", "concentration": "2 µM", "notes": "whole 60-bp probe, lowest competitor level", "together with": "Pho4 competitor, 0.05 µM", "direction": "higher = stronger binding", "shared flanks, not repeated": "… GTCTTGATTCGCTTGACGCTGCTG", "UniProt P17106, sequence (whole entry, looked up)": "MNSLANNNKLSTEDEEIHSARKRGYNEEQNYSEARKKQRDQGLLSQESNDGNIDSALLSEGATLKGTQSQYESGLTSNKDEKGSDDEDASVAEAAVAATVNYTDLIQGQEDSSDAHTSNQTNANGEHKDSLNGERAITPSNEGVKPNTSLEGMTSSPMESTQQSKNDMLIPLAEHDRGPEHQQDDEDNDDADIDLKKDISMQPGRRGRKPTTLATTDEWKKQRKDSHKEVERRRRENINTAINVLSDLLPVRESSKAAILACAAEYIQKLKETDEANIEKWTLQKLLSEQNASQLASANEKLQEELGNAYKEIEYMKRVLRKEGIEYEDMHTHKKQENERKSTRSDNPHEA"}
{"Sequence": "AGCCATACACCAAAGCACGTCGACGAGGTTATATTT", "fluorescence intensity [a.u.]": 102}
{"Sequence": "AAAGCGGTAATTTGTCTGGTGGGTGCAGATATCTAT", "fluorescence intensity [a.u.]": 90}
{"Sequence": "ACATTGTCCCTATTTCACGTGGCCGAATGACACAGT", "fluorescence intensity [a.u.]": 836}
{"Sequence": "CATGTTCATACCCTTCACGTTTGTGGAGCAAAGGTT", "fluorescence intensity [a.u.]": 85.4}
{"Sequence": "AGGGTTACACTCCATCACGTGGGACACCATAATTTA", "fluorescence intensity [a.u.]": 1960}
{"Sequence": "TGCGCAACAACTTGTAAAGTGGGTGTATGTCTAGAA", "fluorescence intensity [a.u.]": 69.1}
{"Sequence": "CTTCTGTAAATTTGGATCGTGGGTGGACGCGCCCCG", "fluorescence intensity [a.u.]": 83.9}
{"Sequence": "AATAAGACGGACGGCCACGTGACGGAAGATTTTTTT", "fluorescence intensity [a.u.]": 4540}
{"Sequence": "TCGCAGATGTTGCCCAGCCTGATCCAGCTCGTATTA", "fluorescence intensity [a.u.]": 54}
{"Sequence": "GTCTTGTCTCATTGTTTAGTGGGTGTCCCCACTTCA", "fluorescence intensity [a.u.]": 80.1}
{"data": "Block 2", "target": "Protein C-ets-1 (ETS1, Homo sapiens, UniProt P14921, residues 1-441, full length assumed)", "technique": "protein-binding microarray", "molecule type": "double-stranded DNA, one strand shown", "medium": "in vitro", "concentration": "not given", "notes": "k-mer, scored over probes, only values ≥0.25", "direction": "higher = stronger binding", "Target sequence (chain)": "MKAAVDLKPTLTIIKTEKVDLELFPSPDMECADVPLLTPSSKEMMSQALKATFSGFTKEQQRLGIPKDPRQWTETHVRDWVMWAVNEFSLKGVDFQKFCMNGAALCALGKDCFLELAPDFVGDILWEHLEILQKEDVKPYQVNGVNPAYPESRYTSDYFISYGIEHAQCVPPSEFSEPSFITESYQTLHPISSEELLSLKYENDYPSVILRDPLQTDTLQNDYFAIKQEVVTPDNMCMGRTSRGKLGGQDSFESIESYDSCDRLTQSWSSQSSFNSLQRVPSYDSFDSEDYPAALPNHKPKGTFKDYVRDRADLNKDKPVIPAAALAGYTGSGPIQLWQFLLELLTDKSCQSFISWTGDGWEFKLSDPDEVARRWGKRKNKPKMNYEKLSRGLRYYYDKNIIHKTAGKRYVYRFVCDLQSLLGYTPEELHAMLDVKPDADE"}
{"Sequence": "CGCCGGAA", "E-score": 0.477}
{"Sequence": "CCGGTTAA", "E-score": 0.34}
{"Sequence": "GGAAACAA", "E-score": 0.363}
{"Sequence": "ACGCCGGA", "E-score": 0.395}
{"Sequence": "ATCCGTGG", "E-score": 0.28}
{"Sequence": "GTACCGGA", "E-score": 0.466}
{"Sequence": "ACATCCAA", "E-score": 0.25}
{"Sequence": "GGATGTAA", "E-score": 0.424}
{"Sequence": "GCAGGAAA", "E-score": 0.443}
{"data": "Block 3", "target": "Histone acetyltransferase KAT6A, winged helix 2, GST fusion (KAT6A, Homo sapiens, UniProt Q92794, residues 85-181)", "technique": "protein binding microarray", "molecule type": "double-stranded DNA, one strand shown", "medium": "in vitro", "concentration": "not given", "notes": "8-mer, flanks averaged, mean of 2 arrays, mostly near background", "relative to": "not given", "direction": "higher = stronger binding", "Target sequence (chain)": "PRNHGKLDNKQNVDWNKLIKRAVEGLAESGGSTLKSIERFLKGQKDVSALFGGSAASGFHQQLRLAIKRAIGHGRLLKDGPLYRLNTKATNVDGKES"}
{"Sequence": "ATCTTAGA", "E-score": 0.0499}
{"Sequence": "ACTAATCG", "E-score": 0.141}
{"Sequence": "CAAACATC", "E-score": -0.0283}
{"Sequence": "ACTGTGCC", "E-score": 0.016}
{"Sequence": "AGCATCAC", "E-score": 0.0138}
{"Sequence": "ATCGATTC", "E-score": -0.0792}
{"data": "Mixed results"}
{"Molecule": "PhoQ, residues 284 288 289 292 302 303 TLASMF", "target": "PhoP, residues 12 14 15 18 19 LHHSG (Escherichia coli, UniProt P23836)", "test": "Sort-seq, item: YFP reporter", "test system": "E. coli", "setting": "PhoQ-PhoP variant library, together with: 10 µM Mg2+", "how to read": "relative to: high Mg2+ state, higher = stronger signaling", "endpoint": "fold induction", "result": 1.09}
{"note": "Excerpt of the above (block 3):"}
{"Sequence": "AGCATCAC", "E-score": 0.0138}
{"Sequence": "ATCGATTC", "E-score": -0.0792}
